Assay results of several laboratories.
“And” joins repeats or separate records; there may be more than shown. Converted amounts (≈) assume the structure as drawn.

CN(Cc1ccc(C2(C(F)(F)F)CCC2)cc1)Cc1cccc2ccccc12
inhibition zone (Trichophyton rubrum; microbial growth, disc diffusion; ATCC28188; 0.0005 µg/mL, 6 days): 0 mm

Nc1nc(-c2ccccc2)nc2[nH]nc(Nc3ccc(O)cc3)c12
IC50 (Human rhinovirus 8; cytopathic effect, inhibitor; HeLa): 44.3 µM

Nc1c(C(=O)c2ccc(Br)cc2)sc(S)c1-c1nc2ccccc2s1
viral titre reduction (human alphaherpesvirus 1; plaque reduction; non-toxic concentration): 20%

COC1C=COC2(C)Oc3c(C)c(O)c4c(c3C2=O)C2=NC3(CCN(CC(C)C)CC3)NC2=C(NC(=O)C(C)=CC=CC(C)C(O)C(C)C(O)C(C)C(OC(=O)c2cncnc2)C1C)C4=O (stereo not shown)
MBC (Mycobacteroides abscessus; ATCC 19977, caseum surrogate; 5 d, non-replicating): 0.7 µM (≈ 0.638 µg/mL)

Nc1nc(-c2ccccc2)nc2[nH]nc(Nc3ccc(F)cc3F)c12
IC50 (Human rhinovirus 8; cytopathic effect, inhibitor; HeLa): 17.7 µM

FC(F)(F)c1cccc(CNc2nc(NC3CCN(Cc4ccccc4)CC3)c3nc[nH]c3n2)c1
downregulated genes (Cryptococcus neoformans; RNA-seq; 48 µg/mL, 3 h, log2 fold change below -1): 506 genes

CC(=O)OC[C@H]1O[C@@H](Sc2sc(C(=O)c3ccc(C)cc3)c(N)c2-c2nc3ccccc3s2)[C@H](OC(C)=O)[C@@H](OC(C)=O)[C@H]1OC(C)=O
viral titre reduction (human alphaherpesvirus 1; plaque reduction; non-toxic concentration): 80%

CCc1nc2ccccn2c1C(=O)NCc1ccc2oc(-c3ccc(OC(F)(F)F)cc3)nc2c1
MIC90 (Mycobacteroides abscessus; RFP fluorescence; ATCC 19977, RFP reporter): > 100 µM

Fc1ccc2c(c1)c1nc3ccc(Br)cc3c-1cn2Cc1cn(-c2ccccc2I)nn1
fold change (Giardia duodenalis; UHPLC-Q-TOF-MS metabolomics, item: SM(d18:1/16:0); trophozoites; IC50 concentration, 0.2357 h, RT 14.14 min, m/z 740.5; relative to: 0.25% DMSO vehicle): 1.74

Cc1nc2cc(Br)ccn2c1C(=O)NCc1ccc2oc(-c3ccc(Cl)cc3)nc2c1
MIC90 (Mycobacteroides abscessus; RFP fluorescence; ATCC 19977, RFP reporter): > 100 µM

Cc1cccc2c1N(C(=O)n1ccnn1)CC2
plant height (Oryza sativa; concentration not given): 21.4 cm and 20.8 cm and 21.9 cm and 21.5 cm and 20.6 cm and 23.2 cm and 22.8 cm and 22.7 cm

C=C[C@]1(C)C[C@@H](OC(=O)CSc2ccc(NC(=O)c3ccco3)cc2)[C@]2(C)[C@H](C)CC[C@]3(CCC(=O)[C@H]32)[C@@H](C)[C@@H]1O
lung mycoplasma count (Mycoplasma gallisepticum; infected chickens, lung; intramuscular, 70 mg/kg daily x3, 72 h): 2.54 log10 CFU/mL and 2 log10 CFU/mL and 2.78 log10 CFU/mL and 3 log10 CFU/mL and 3.01 log10 CFU/mL and 3.23 log10 CFU/mL and 2.39 log10 CFU/mL

Cc1ccc(C(=O)c2sc(S)c(-c3nc4ccccc4s3)c2N)cc1
viral titre reduction (human alphaherpesvirus 1; plaque reduction; non-toxic concentration): 10%

Cc1ccc(Nc2n[nH]c3nc(-c4ccccc4)nc(N)c23)cc1
IC50 (Human rhinovirus 8; cytopathic effect, inhibitor; HeLa): 7.02 µM

CCc1nc2ccc(C(F)(F)F)cn2c1C(=O)NCc1ccc2oc(-c3ccc(Cl)cc3)nc2c1
MIC90 (Mycobacteroides abscessus; RFP fluorescence; ATCC 19977, RFP reporter): > 100 µM

O=[N+]([O-])c1cc(Br)cc([N+](=O)[O-])c1NS(=O)(=O)c1ccc(Br)cc1
germination rate (Arabidopsis thaliana wild type; 20 µM): > 90%

CC(C)(C)NCC(SS(=O)(=O)O)c1ccccc1 (stereo not shown)
liver weight decrease (Schistosoma mansoni; perfusion day 44; infected Swiss Webster mice; 600 mg/kg single dose, 1056 h, dosed day 15 post-infection; relative to: vehicle control): 40%

CSc1ccc(Nc2n[nH]c3nc(-c4ccccc4)nc(N)c23)cc1
IC50 (Human rhinovirus 8; cytopathic effect, inhibitor; HeLa): 8.9 µM

Cc1nc2ccc(C(F)(F)F)cn2c1C(=O)NCc1ccc2oc(-c3ccc(OC(F)(F)F)cc3)nc2c1
MIC90 (Mycobacteroides abscessus; RFP fluorescence; ATCC 19977, RFP reporter): > 100 µM

COc1ccc(Nc2n[nH]c3nc(-c4ccccc4)nc(N)c23)cc1OC
IC50 (Human rhinovirus 8; cytopathic effect, inhibitor; HeLa): 12.4 µM

Cc1c(CN(C)C(=O)/C=C/c2cnc3c(c2)CC(N)C(=O)N3)oc2ccccc12 (stereo not shown)
MIC (Escherichia coli; broth microdilution; AR-0114): 8 µg/mL (≈ 20.5 µM)

CCc1nc2ccc(OC(F)(F)F)cn2c1C(=O)NCc1ccc2oc(-c3ccc(Cl)cc3)nc2c1
MIC90 (Mycobacteroides abscessus; RFP fluorescence; ATCC 19977, RFP reporter): > 25 µM

C=CC(=O)Nc1cccc(Cn2ncc3cnc(Nc4cnn(CCOC)c4)nc32)c1
binding (human SgK110; KINOMEscan; 100 nM; relative to: control): 21%

Nc1c(C(=O)c2ccc(Cl)cc2)sc(S)c1-c1nc2ccccc2s1
viral titre reduction (human alphaherpesvirus 1; plaque reduction; non-toxic concentration): 20%

C=C(NC(=O)c1csc(-c2nc3c(cc2O)-c2nc(cs2)C(=O)NC(C(C)O)C(=O)NC(=C(C)OC)c2nc(cs2)C(=O)NC2c4nc(cs4)C(=O)NC(COC(=O)c4c5c6c(cccc6n4O)COC(=O)C(OC4CC(C)(O)C(N(C)C)C(C)O4)C2OC5)c2nc-3cs2)n1)C(N)=O (stereo not shown)
lung bacterial load (Streptococcus pneumoniae; -25, immunocompromised mice, lung infection; 2 mg/kg/day, twice daily, 24 h post-dose): 4.03 log CFU/g

CCc1nc2cc(OC(F)(F)F)ccn2c1C(=O)NCc1ccc2oc(-c3ccc(OC(F)(F)F)cc3)nc2c1
MIC90 (Mycobacteroides abscessus; RFP fluorescence; ATCC 19977, RFP reporter): > 50 µM

Cc1ncsc1-c1ccc(C(C)NC(=O)C2CC(O)CN2C(=O)C(NC(=O)CCCCCCCCCCN2CCCC(Nc3ncc(Cl)c(Nc4ccccc4S(=O)(=O)C(C)C)n3)C2)C(C)(C)C)cc1 (stereo not shown)
log2 fold change (22Rv1; RNA-seq, item: SLC5A10 mRNA; concentration not given; relative to: DMSO): -2.06

OC(Cn1cncn1)(Cn1cc(-[c-]2cccc2)nn1)c1ccc(F)cc1F.[Cl-].[Co+3].c1cc[cH-]c1 (racemic)
motility inhibition (Trichuris muris; Worminator; adult males and females; 100 µM, day 2): 29%

Cc1cccc(Nc2n[nH]c3nc(-c4ccccc4)nc(N)c23)c1
IC50 (Human rhinovirus 8; cytopathic effect, inhibitor; HeLa): 2.21 µM

CC1CC2(N=CCS2)C2(O)OC3CC4(C)C(CC3OC2O1)CC1OC12C4C(O)C(=O)C1(C)C(C3=CC(=O)OC3)CCC12O (stereo not shown)
eggs per female (Oncopeltus fasciatus; diet, concentration not given): 294

Nc1nc(-c2ccccc2)nc2[nH]nc(Nc3cccc(F)c3)c12
IC50 (Human rhinovirus 8; cytopathic effect, inhibitor; HeLa): 14.4 µM

COC1CN([C@H]2CC[C@H]([C@@]3(C)Oc4c(Cl)cc(C(=O)NCc5c(SC)cc(C)[nH]c5=O)c(C)c4O3)CC2)C1
log2 fold change (RNA-seq, item: PLEKHA7; human, whole blood; dose not given, 24 h; relative to: pretreatment baseline): 1.33

Nc1nc(-c2ccc(OC(F)(F)F)cc2)nc2[nH]nc(Nc3ccc(Cl)cc3)c12
IC50 (Human rhinovirus 8; cytopathic effect, inhibitor; HeLa): 1.9 µM

CCc1nc2ccc(Cl)cn2c1C(=O)NCc1ccc2oc(-c3ccc(OC(F)(F)F)cc3)nc2c1
MIC90 (Mycobacteroides abscessus; RFP fluorescence; ATCC 19977, RFP reporter): > 100 µM

For quick reference, copied from above:
Cc1nc2cc(Br)ccn2c1C(=O)NCc1ccc2oc(-c3ccc(Cl)cc3)nc2c1
MIC90 (Mycobacteroides abscessus; RFP fluorescence; ATCC 19977, RFP reporter): > 100 µM

Cc1cccc2c1N(C(=O)n1ccnn1)CC2
plant height (Oryza sativa; concentration not given): 21.4 cm and 20.8 cm and 21.9 cm and 21.5 cm and 20.6 cm and 23.2 cm and 22.8 cm and 22.7 cm
